Published values of several laboratories.
A part holds a random share of what one study measured. Values joined by “and” are separate records of one study, mostly repeats; a detail may differ.
UniProt Q14164, sequence (whole entry, looked up): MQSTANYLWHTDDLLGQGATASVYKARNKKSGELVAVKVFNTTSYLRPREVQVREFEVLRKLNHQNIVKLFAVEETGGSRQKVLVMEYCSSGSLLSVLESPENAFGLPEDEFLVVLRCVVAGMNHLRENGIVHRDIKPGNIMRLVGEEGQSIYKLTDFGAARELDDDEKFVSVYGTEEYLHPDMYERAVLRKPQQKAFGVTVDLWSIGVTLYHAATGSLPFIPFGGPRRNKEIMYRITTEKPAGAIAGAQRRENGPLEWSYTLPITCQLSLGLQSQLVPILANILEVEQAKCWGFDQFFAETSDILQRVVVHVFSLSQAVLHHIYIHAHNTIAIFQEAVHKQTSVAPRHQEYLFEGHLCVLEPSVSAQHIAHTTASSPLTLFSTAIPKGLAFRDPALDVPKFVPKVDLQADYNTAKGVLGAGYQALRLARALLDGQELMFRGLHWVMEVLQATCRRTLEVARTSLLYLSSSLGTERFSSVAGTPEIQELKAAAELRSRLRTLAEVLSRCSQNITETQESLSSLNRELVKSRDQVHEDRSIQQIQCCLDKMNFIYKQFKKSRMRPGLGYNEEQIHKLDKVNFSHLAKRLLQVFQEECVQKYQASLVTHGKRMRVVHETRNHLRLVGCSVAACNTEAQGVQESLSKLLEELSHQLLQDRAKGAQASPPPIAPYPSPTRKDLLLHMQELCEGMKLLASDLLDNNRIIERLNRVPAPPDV
UniProt P45984, sequence (whole entry, looked up): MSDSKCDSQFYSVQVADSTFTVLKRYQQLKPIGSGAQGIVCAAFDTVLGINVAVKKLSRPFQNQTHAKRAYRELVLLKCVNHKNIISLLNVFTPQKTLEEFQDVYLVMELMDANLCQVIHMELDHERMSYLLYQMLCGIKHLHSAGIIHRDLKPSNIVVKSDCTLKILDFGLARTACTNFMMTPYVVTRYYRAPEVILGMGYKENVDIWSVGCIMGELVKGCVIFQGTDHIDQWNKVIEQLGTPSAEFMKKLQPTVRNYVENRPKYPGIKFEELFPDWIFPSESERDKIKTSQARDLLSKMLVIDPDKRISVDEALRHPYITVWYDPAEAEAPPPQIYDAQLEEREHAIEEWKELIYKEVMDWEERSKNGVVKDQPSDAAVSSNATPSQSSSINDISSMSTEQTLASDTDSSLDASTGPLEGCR
UniProt P07948, sequence (whole entry, looked up): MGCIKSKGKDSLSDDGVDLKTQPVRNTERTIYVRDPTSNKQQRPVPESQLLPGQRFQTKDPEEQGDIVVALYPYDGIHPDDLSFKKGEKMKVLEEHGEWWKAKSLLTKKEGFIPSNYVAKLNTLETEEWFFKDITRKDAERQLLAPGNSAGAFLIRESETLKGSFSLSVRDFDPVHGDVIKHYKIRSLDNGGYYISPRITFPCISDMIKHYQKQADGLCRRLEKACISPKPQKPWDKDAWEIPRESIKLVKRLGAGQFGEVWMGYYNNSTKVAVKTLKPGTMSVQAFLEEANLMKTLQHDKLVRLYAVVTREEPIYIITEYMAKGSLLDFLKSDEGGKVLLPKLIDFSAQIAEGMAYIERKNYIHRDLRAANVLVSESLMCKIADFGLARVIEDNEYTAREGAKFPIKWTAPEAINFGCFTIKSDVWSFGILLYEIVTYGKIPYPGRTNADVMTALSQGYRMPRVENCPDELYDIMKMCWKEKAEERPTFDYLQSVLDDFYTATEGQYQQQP
UniProt O43318, sequence (whole entry, looked up): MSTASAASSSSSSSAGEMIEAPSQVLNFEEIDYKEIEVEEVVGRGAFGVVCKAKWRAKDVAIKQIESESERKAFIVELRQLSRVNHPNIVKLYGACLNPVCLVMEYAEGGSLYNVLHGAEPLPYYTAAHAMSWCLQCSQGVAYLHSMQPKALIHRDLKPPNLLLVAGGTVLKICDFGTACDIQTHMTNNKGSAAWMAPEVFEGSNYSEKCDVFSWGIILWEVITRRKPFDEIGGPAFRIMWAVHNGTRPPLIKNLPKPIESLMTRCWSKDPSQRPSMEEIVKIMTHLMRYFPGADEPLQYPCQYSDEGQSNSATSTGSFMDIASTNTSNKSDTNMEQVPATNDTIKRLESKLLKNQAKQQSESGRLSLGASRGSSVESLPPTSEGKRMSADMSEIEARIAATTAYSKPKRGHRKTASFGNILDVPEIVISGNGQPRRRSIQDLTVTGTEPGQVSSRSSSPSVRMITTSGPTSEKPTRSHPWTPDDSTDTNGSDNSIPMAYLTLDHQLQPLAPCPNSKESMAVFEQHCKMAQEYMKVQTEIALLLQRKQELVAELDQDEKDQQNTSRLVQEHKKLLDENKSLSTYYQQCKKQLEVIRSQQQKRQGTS

Study 1 — cell line: mouse MPNST tumor cells; technique: high-content nuclear imaging; refers to: cell number; tested at: 10 µM; time: 12 h; setting: mean of 2 replicates; relative to: plate mean; reading: higher = more cells; measurement: nuclei count
COC(=O)Nc1nc2cc(Sc3ccccc3)ccc2[nH]1: -5.43 z-score
CC1(C)OC(=O)NC1=O: -0.0705 z-score
Oc1c(CN2CCCC2)cc(COCc2ccccc2)c2cccnc12: -3.15 z-score
CC(C)(C)n1nc(-c2cccc3ccccc23)c2c(N)ncnc21: -1.5 z-score
Cc1cn2c(N)c(Cl)cc(C(=O)NCC3CCN(CC(C)C)CC3)c2n1: 1.02 z-score
N[C@@H]1CONC1=O: -0.566 z-score and -2.22 z-score
Cn1cc(C2=C(c3cn(CCCSC(=N)N)c4ccccc34)C(=O)NC2=O)c2ccccc21: -4.45 z-score
OCCN(CCO)c1nc(N2CCCCCCC2)c2nc(N(CCO)CCO)nc(N3CCCCCCC3)c2n1: -1.87 z-score
Cc1ccc(N(CC2=NCCN2)c2cccc(O)c2)cc1: -1.45 z-score and -2.24 z-score
CCN(CC)CCCC(C)Nc1c2ccc(Cl)cc2nc2ccc(OC)cc12 (stereo not shown): -4.45 z-score

Study 2 — mode: inhibitor; measurement: inhibition
Compound: Cc1nc(Nc2ncc(C(=O)Nc3c(C)cccc3Cl)s2)cc(N2CCN(CCO)CC2)n1
CSNK1E (Homo sapiens, UniProt P49674); 10 µM: 78%
FGFR4 (Homo sapiens, UniProt P22455); 10 µM: < 50%
MAP3K7 (Homo sapiens, UniProt O43318); 10 µM: < 50%
CDK16 (Homo sapiens, UniProt Q00536); 10 µM: < 50%
PRKCE (Homo sapiens, UniProt Q02156); 10 µM: < 50%
CDK7 (Homo sapiens, UniProt P50613); 1 µM: < 50%

Study 3 — observed: enzyme activity; mode: inhibitor; tested at: 77 µM; relative to: untreated; measurement: remaining activity
Target: DNA polymerase theta, ATPase domain (POLQ, Homo sapiens, UniProt O75417)
UniProt O75417, sequence (whole entry, unmodified, looked up): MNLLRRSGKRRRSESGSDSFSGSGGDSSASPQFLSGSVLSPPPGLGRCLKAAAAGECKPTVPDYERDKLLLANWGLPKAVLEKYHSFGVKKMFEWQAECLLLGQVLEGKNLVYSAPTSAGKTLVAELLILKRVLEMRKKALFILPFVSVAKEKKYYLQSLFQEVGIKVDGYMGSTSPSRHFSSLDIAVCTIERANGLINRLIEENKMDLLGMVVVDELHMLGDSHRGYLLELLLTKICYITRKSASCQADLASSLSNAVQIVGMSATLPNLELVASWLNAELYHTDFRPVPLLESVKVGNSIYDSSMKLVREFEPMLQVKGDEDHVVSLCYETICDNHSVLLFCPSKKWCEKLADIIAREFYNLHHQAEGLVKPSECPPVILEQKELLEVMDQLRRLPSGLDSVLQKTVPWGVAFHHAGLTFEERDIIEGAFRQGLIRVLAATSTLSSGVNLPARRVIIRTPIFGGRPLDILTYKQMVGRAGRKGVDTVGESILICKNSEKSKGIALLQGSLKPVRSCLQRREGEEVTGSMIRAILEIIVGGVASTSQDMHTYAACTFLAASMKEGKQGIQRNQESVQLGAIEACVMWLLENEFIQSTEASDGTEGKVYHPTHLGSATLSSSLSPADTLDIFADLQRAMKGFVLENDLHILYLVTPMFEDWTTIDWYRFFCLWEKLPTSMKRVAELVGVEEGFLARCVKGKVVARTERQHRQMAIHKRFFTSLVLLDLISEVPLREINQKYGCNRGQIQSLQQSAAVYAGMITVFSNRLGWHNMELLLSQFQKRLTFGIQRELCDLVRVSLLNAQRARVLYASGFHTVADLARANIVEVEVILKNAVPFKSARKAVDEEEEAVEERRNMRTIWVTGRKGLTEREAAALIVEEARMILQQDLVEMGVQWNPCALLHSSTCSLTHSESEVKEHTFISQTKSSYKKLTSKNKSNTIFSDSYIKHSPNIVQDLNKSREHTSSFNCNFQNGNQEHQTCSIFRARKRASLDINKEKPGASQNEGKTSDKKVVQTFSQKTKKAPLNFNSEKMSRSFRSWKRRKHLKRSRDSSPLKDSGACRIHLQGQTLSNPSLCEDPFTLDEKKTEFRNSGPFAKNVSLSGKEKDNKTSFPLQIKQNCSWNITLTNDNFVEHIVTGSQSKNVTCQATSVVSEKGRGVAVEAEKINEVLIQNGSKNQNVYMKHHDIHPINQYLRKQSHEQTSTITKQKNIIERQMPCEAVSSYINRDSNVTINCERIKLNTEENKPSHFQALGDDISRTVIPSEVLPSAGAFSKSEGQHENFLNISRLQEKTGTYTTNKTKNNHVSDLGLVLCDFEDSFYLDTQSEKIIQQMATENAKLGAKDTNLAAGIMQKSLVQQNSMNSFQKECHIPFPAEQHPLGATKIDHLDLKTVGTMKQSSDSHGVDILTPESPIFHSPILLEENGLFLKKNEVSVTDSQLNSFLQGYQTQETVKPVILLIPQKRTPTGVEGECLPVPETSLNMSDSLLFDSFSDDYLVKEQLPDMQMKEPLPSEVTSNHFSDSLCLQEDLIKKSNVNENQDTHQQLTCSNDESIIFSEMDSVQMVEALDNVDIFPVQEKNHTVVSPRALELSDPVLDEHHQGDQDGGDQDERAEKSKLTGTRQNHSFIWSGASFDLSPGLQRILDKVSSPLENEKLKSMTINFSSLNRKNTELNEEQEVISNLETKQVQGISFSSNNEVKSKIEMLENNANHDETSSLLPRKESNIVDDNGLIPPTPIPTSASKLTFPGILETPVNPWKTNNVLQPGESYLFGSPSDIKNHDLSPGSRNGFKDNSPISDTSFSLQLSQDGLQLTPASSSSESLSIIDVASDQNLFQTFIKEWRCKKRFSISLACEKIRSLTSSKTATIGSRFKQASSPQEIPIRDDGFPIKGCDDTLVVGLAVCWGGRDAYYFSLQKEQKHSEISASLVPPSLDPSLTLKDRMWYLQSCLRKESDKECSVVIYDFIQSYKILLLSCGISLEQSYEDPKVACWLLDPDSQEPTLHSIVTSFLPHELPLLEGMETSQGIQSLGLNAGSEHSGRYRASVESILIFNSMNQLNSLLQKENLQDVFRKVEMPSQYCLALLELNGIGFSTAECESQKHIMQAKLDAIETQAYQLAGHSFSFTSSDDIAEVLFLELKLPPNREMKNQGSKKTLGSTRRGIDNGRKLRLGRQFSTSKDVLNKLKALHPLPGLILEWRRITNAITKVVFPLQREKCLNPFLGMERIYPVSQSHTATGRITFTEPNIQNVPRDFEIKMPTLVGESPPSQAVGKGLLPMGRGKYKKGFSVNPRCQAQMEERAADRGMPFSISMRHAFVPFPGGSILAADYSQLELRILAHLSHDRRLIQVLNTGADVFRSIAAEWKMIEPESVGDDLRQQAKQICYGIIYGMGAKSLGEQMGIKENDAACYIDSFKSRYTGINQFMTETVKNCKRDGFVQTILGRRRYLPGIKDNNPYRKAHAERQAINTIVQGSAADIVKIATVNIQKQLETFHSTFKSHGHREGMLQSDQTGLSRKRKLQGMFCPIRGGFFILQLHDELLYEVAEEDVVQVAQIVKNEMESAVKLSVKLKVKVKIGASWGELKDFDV
O=C1CCc2cc(OCCCCc3nnnn3C3CCCCC3)ccc2N1: 99.8% and 104%
CN1CCN(c2ccc(OC(F)(F)F)c(Nc3ncc4c(n3)-c3c(c(C(N)=O)nn3CCO)CC4)c2)CC1: 102%
CCc1cccc2c3c([nH]c12)C(CC)(CC(=O)O)OCC3 (stereo not shown): 88.1% and 92.7%
CC(C)(Oc1ccc(Cl)cc1)C(=O)OCCOC(=O)c1cccnc1: 92.2%
CCCCN(Cc1ccc(C(=O)NO)cc1)C(=O)Nc1ccccc1: 98.5%
COc1cnc(NS(=O)(=O)c2ccc(N)cc2)nc1: 86.4% and 104%
CCOC(=O)[C@H](CCc1ccccc1)N[C@H]1CS[C@H](c2cccs2)CN(CC(=O)O)C1=O: 98.3%
CC(C)(C)C(=O)OCOC(=O)[C@@H]1N2C(=O)[C@@H](NC(=O)[C@H](N)c3ccccc3)[C@H]2SC1(C)C: 102%

Study 4 — observed: enzyme activity; mode: inhibitor; tested at: 0.5 µM; relative to: control; measurement: remaining activity
Compound: CS(=O)(=O)CCNCc1ccc(-c2ccc3ncnc(Nc4ccc(OCc5cccc(F)c5)c(Cl)c4)c3c2)o1
Cyclin-dependent kinase 5, with p25 (CDK5, Homo sapiens, UniProt Q00535): 90.4%
MAPK9 (Homo sapiens, UniProt P45984): 98.1%
PRKACA (Homo sapiens, UniProt P17612): 96%
Protein kinase C beta type, isoform beta-I (PRKCB, Homo sapiens, UniProt P05771): 93.5%
TGFBR2 (Homo sapiens, UniProt P37173): 96.1%
IKBKB (Homo sapiens, UniProt O14920): 81%
STK10 (Homo sapiens, UniProt O94804): 94.8%
TGFBR1 (Homo sapiens, UniProt P36897): 101%
NEK2 (Homo sapiens, UniProt P51955): 118%
CHEK2 (Homo sapiens, UniProt O96017): 96.8%
DAPK2 (Homo sapiens, UniProt Q9UIK4): 103%
CAMK2D (Homo sapiens, UniProt Q13557): 92.5%
cGMP-dependent protein kinase 1, isoform beta (PRKG1, Homo sapiens, UniProt Q13976): 99.7%
Tyrosine-protein kinase Lyn, isoform B (LYN, Homo sapiens, UniProt P07948): 103%
GRK3 (Homo sapiens, UniProt P35626): 96.7%
IKBKE (Homo sapiens, UniProt Q14164): 94.9%
PRKCA (Homo sapiens, UniProt P17252): 83%
STK39 (Homo sapiens, UniProt Q9UEW8): 100%

Other studies, line by line
O=C(Nc1cccnn1)N1CCC(=Cc2cccc(Oc3ccc(C(F)(F)F)cn3)c2)CC1  inhibition (5-hydroxytryptamine receptor 3A (HTR3A, Homo sapiens, UniProt P46098); binding, radioligand binding; 10 µM): 10.7%
